Results pooled from the literature.
Each line is one published result; not all experiments were run side by side. ± marks the error that the study gave.

Structure (SMILES)	assay	system	conditions	quantity	result
CNC(=O)c1cc(Oc2ccc(NC(=O)Nc3cc(C(C)(C)C)nn3-c3ccc4ncccc4c3)c(F)c2)ccn1	retinal vein occlusion, NCI CTC v3.0	human patients	oral, all dose levels	related SAE	2%
CC(=O)c1c(C)c2cnc(Nc3ccc(C4CCN(CCS(C)(=O)=O)CC4)cn3)nc2n(C2CCCC2)c1=O		human, dose-escalation trial, plasma	oral, 25 mg twice daily, day 1, single dose	AUC(0-t)	449 ng·h/mL
C=CC(=O)N1CC[C@H](n2nc(C#Cc3cc(OC)cc(OC)c3)c3c(N)ncnc32)C1		human patients	oral, dose not given, QD regimen, adverse drug reaction, with: lanthanum carbonate hydrate	hyperphosphatemia incidence, grade ≥3	8.3%
C[C@H]1CN(C(=O)CC#N)[C@]12CCN(c1ncnc3[nH]ccc13)C2		rat male	oral, 30 mg/kg repeated daily, 3 months, repeated-dose toxicity study	Cmax at NOAEL	3030 ng/mL
COc1ccc(-c2c(-c3ccc(C#N)c(F)c3)nc(N3CCC(N)CC3)n(C)c2=O)cc1F	measured: Constipation	human patients	oral, dose not given, dose escalation, NG	serious adverse event incidence	2%
CC(C)(C)c1cc(-n2nc3ccc(Cl)cc3n2)c(O)c(C(C)(C)C)c1		reconstructed human epidermis EpiSkin	36 h	cumulative dermal absorption	63.8 ± 2.79%
COc1ncnn2ccc(-c3cnc4nc(C)n(Cc5nnc([C@@H](C)F)o5)c4c3)c12		human	oral, dose not given, grade 3	patients with vomiting	0%
C[C@]1(O)C[C@@](N)(c2ccc(-c3nc4n(c3-c3ccccc3)COc3ccncc3-4)cc2)C1		human, advanced or metastatic solid tumours	28 mg intermittent, phase I dose escalation	patients with serious AE	33.3%
CC(C)(O)c1cc(Nc2cc(Oc3cn(C4CC4)nc3C3CCOCC3)ccn2)ccn1	Thrombocytopenia	patients with advanced cancer, Japanese cohort	oral, dose not given, grade ≥3	treatment-related adverse events	0%
COc1cc(C(=O)NC2CCN(C)CC2)c(F)cc1Nc1ncc(C(F)(F)F)c(Oc2cccc3c2C(=O)N(C)C3)n1		human patients, plasma	oral, 25 mg single dose, geometric mean	mean residence time	30.1 h
COc1cc2c(Oc3ccc4[nH]c(C)cc4c3F)ccnc2cc1OCC1(N)CC1		paediatric recurrent refractory sarcoma	10 mg	grade 3 Cholesterol elevation	0%
CC(C)n1c(C2CCNCC2)nc2c([N+](=O)[O-])c(Br)c(Br)cc21		patients with AML	125 mg, pseudomonal pneumonia	AE leading to discontinuation	2%
O=[N+]([O-])NC1=NCCN1Cc1ccc(Cl)nc1	ultrafiltration	cow milk whey	2000 nM nominal in whole milk	dose fraction in permeate	58.5%
CC(C)C(=O)OC[C@H]1O[C@@H](n2ccc(NO)nc2=O)[C@H](O)[C@@H]1O		rat amniotic fluid dialysate	250 ng/mL, high concentration, three cycles, with: NHC 1000 ng/mL	freeze-thaw stability	97.7 ± 1.14%

Excerpt of the above:
Structure (SMILES)	assay	system	conditions	quantity	result
CC(C)(C)c1cc(-n2nc3ccc(Cl)cc3n2)c(O)c(C(C)(C)C)c1		reconstructed human epidermis EpiSkin	36 h	cumulative dermal absorption	63.8 ± 2.79%
